Measured values gathered from unrelated publications.
Compare with care: the assays were run in different laboratories. Values joined by “and” are separate records of one study, mostly repeats; a detail may differ. Numbers after ± are the reported error.
Sodium- and chloride-dependent glycine transporter 2: Sodium- and chloride-dependent glycine transporter 2 (Homo sapiens, UniProt Q9Y345)
Sequence of UniProt Q9Y345 (whole entry, looked up): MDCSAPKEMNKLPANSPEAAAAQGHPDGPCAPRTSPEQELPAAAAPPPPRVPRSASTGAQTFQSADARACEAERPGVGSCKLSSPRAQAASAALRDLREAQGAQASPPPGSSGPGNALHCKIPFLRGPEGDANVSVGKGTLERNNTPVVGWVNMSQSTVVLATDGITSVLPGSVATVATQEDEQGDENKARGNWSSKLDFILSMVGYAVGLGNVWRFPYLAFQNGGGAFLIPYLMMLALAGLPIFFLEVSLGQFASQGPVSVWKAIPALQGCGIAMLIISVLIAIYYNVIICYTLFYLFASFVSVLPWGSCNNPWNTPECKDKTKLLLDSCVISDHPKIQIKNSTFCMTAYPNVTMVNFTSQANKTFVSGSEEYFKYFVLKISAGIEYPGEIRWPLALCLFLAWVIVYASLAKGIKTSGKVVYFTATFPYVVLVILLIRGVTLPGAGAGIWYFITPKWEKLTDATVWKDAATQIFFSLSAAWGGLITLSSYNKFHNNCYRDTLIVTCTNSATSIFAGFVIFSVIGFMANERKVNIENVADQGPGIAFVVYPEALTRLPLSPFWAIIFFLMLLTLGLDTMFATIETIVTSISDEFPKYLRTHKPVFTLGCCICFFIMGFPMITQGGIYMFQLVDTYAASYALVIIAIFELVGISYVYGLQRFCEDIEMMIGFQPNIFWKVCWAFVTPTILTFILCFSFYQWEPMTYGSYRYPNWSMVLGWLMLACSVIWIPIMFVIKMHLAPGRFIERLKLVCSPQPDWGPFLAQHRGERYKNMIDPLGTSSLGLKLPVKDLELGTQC
Gria1/Gria2: Glutamate receptor AMPA 1/2 (Gria1/Gria2, Rattus norvegicus, UniProt P19490+P19491)
Sequence of UniProt P19491 (whole entry, looked up): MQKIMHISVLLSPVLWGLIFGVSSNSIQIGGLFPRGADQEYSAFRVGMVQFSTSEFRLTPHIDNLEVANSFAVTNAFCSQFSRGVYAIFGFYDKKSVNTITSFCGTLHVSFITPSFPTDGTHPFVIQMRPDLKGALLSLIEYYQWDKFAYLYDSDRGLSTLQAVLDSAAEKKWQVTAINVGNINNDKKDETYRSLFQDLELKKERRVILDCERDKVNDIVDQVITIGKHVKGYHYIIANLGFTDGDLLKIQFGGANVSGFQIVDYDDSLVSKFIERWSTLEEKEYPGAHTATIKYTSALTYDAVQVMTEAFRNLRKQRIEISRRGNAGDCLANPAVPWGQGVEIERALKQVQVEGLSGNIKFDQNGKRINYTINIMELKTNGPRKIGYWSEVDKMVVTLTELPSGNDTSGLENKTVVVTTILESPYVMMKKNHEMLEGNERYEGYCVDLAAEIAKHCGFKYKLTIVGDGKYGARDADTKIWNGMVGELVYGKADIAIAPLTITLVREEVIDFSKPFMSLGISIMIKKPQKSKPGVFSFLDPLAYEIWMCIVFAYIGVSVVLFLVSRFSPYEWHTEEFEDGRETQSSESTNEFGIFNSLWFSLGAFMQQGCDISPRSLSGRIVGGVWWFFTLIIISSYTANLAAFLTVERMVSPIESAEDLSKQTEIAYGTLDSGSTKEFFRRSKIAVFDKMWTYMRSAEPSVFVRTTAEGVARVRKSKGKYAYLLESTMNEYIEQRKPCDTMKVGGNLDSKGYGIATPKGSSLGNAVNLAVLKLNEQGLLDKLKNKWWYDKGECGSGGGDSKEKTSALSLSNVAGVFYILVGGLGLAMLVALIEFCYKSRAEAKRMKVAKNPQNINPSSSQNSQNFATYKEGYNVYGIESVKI
Sequence of UniProt P19490 (whole entry, looked up): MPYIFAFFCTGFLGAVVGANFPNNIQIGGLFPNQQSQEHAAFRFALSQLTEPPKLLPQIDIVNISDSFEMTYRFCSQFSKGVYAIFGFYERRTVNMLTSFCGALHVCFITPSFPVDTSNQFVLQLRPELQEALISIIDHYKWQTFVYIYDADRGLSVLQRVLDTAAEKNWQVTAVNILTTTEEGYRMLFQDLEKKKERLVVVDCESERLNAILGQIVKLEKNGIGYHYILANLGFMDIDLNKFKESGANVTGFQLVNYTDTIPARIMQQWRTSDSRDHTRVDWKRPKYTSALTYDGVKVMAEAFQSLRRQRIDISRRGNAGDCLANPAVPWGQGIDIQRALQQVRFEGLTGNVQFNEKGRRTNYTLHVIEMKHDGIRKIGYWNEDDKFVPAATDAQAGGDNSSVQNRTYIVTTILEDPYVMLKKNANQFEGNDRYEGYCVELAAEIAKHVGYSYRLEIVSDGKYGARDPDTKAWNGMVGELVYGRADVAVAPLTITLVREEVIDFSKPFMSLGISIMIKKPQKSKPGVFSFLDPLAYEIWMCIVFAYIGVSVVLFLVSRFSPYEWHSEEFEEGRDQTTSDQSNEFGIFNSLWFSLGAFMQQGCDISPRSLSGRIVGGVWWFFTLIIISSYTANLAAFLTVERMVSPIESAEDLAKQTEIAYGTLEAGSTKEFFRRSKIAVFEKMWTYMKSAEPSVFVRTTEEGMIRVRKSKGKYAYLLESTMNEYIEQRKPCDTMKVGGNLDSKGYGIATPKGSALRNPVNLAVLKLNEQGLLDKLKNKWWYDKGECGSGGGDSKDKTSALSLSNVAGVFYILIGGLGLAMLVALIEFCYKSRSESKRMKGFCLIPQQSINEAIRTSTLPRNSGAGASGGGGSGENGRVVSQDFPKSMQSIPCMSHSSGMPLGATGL
TARDBP aggregated: TAR DNA-binding protein 43, aggregated (TARDBP, Homo sapiens, UniProt Q13148)
GAP50: Glideosome-associated protein 50 (GAP50, Plasmodium falciparum, UniProt Q8I2X3)
Sequence of UniProt O00206 (whole entry, looked up): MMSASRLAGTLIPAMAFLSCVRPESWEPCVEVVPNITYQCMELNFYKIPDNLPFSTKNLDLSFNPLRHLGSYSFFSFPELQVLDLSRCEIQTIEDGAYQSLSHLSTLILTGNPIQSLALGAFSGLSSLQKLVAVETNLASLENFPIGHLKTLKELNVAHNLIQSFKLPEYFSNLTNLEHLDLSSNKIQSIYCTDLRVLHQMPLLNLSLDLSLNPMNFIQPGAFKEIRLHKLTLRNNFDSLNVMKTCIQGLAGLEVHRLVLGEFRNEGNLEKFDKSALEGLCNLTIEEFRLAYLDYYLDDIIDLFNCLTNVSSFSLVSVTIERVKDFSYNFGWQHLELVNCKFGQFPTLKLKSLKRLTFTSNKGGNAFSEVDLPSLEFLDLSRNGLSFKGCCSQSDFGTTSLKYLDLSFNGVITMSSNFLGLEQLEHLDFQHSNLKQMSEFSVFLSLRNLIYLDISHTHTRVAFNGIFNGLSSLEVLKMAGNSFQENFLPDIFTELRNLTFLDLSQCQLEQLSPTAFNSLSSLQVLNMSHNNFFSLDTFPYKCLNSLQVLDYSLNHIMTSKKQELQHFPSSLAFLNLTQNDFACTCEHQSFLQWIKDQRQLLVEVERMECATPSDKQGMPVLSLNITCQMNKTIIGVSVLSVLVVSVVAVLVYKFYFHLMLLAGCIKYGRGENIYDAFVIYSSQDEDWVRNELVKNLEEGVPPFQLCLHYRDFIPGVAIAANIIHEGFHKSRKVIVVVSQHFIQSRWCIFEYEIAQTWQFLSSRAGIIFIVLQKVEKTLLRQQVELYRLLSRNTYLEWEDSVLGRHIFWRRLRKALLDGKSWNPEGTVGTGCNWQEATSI
Sequence of UniProt Q7Z5P4 (whole entry, looked up): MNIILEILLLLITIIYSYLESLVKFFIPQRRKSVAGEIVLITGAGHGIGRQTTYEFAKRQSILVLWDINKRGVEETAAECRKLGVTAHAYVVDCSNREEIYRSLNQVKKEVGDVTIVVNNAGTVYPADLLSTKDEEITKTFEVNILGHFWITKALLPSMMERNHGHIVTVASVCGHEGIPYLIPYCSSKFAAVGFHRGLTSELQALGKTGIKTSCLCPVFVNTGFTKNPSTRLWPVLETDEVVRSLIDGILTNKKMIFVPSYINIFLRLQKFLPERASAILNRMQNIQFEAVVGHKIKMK
Sequence of UniProt P46089 (whole entry, looked up): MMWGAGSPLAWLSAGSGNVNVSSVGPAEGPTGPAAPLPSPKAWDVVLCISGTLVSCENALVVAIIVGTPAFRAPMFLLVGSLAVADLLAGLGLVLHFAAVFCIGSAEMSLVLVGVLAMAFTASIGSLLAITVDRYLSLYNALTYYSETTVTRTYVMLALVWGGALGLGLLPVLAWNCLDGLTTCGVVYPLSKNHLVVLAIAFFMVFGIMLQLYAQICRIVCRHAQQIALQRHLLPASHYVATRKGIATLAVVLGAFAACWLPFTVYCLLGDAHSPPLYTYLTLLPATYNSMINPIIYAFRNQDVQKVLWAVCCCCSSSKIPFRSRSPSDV
Sequence of UniProt P45983 (whole entry, unmodified, looked up): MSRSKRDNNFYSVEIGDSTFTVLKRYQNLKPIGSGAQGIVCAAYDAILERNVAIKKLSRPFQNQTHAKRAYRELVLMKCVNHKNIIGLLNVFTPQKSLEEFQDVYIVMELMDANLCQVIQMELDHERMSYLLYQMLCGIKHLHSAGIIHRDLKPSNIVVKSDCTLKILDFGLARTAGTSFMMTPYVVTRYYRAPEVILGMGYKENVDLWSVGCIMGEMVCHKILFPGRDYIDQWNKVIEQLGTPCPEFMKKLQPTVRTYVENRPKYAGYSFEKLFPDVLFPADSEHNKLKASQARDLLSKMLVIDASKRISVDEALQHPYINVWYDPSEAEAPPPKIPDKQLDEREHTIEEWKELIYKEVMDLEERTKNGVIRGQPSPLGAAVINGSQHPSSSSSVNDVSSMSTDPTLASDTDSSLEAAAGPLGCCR
Sequence of UniProt Q06180 (whole entry, looked up): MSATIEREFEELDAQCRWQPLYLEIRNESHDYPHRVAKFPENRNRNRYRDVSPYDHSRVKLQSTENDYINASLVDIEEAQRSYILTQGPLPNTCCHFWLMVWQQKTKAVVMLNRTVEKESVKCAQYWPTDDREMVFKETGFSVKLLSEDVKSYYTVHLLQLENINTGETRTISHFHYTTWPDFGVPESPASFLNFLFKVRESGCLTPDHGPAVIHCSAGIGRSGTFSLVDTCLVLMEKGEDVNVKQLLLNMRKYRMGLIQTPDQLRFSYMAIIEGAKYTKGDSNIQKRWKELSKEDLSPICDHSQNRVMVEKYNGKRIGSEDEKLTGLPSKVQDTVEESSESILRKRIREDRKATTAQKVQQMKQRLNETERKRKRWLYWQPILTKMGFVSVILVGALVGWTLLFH

Compound	target	test	test system	conditions	how to read	endpoint	value
OC[C@H]1c2[nH]cnc2[C@H](O)[C@@H](O)[C@@H]1O	bglA (Thermotoga maritima, UniProt Q08638)	ITC	–	pH 6.8, 25 °C	–	ΔG	-6.21 ± 0.143 kcal/mol
CCCCCC=CC=C1C(=O)C=CC1CC=CCCCC(=O)O (stereo not drawn)	Protein deacetylase HDAC6 (HDAC6, Homo sapiens, UniProt Q9UBN7)	competitive isoTOP-ABPP	Ramos soluble proteome	100 µM, together with: iodoacetamide probe	baseline: DMSO over compound-treated, higher = stronger cysteine blockade	isoTOP-ABPP competition ratio	2
CC1=CC(C)=[N+]2C1=C(CCCN1CCC(c3ccccc3)CC1)c1c(C)cc(C)n1[B-]2(F)F	Sodium- and chloride-dependent glycine transporter 2	MS binding competition	–	10 µM	–	remaining specific binding	96.2 ± 5.5%
CCCCCCCCCCCCC/C=C/C=O	Isoleucine--tRNA ligase, cytoplasmic (Homo sapiens, UniProt P41252)	competitive isoTOP-ABPP, item: IARS cysteine peptide	Ramos soluble proteome	100 µM, together with: iodoacetamide probe	baseline: DMSO over compound-treated, higher = stronger cysteine blockade	isoTOP-ABPP competition ratio	1
O[C@H]1[C@H](O)[C@@H](Cl)C=C[C@@H]1O	Lysosomal acid glucosylceramidase (GBA1, Homo sapiens, UniProt P04062)	continuous progress curves	–	pH 5.2, 25 °C, 0.1% BSA	–	kinact/Ki	41 ± 2 M⁻¹ s⁻¹
O=C(O)Cc1cc2c(cc1C(=O)c1cccc(Br)c1)OCO2	Gria1/Gria2	whole-cell patch clamp	HEK-293T	concentration not given, together with: glutamate	–	desensitization time constant	3.7 ± 0.3 ms
Cc1cc(-c2ccccc2)cc(C(=O)NNS(=O)(=O)c2ccccc2)c1F	Histone acetyltransferase KAT5 (KAT5, Homo sapiens, UniProt Q92993)	SPR	–	0.0078 µM	higher = more binding	SPR binding response	0.127 RU
CC(C)Oc1cc(Cl)ccc1CNc1cc(-c2ccccc2)nc2ncnn12	G-protein coupled receptor 3 (GPR3, Homo sapiens, UniProt P46089)	cAMP reporter	human cells	1 nM	higher is more cAMP	cAMP luminescence	39500 a.u. and 31800 a.u. and 50200 a.u. and 33000 a.u. and 64600 a.u. and 43300 a.u. and 18400 a.u.
Cn1c(=O)n(C2CCC(=O)NC2=O)c2ccc(C3CCN(CC(=O)Nc4cccc(CS(=O)(=O)N5CC[C@H](Nc6cccc(-c7sc(C(=O)O)c(OCC(=O)O)c7Cl)c6)CC5(C)C)c4)CC3)cc21 (stereo partly drawn)	Tyrosine-protein phosphatase non-receptor type 2 (Ptpn2, Mus musculus, UniProt Q06180)	degrader, Western blot	B16-F10	0.001 µM	–	remaining protein	85% and 86.1%
N#C[Se]CCCCCCOc1ccc2c(-c3ccccc3)cc(=O)oc2c1	Carbonic anhydrase 12 (CA12, Homo sapiens, UniProt O43570)	stopped-flow CO2 hydration	–	–	baseline: Ki CA II over Ki CA XII	selectivity ratio	> 609
C=CC(=O)N1CC2(CCN(c3nc(OC4CCN(CCCOC)CC4)nc4c(OCC(F)(F)F)c(-c5c(C)ccc6[nH]ncc56)c(C5CC5)cc34)CC2)C1	GTPase KRas, GDP-bound (KRAS, Homo sapiens, UniProt P01116, Q61H)	binding, surface plasmon resonance	–	–	–	association rate constant	38100 ± 4600 M⁻¹ s⁻¹
O=C(Cc1ccc(OCc2ccccc2)cc1)NC1(C(=O)O)CCN(C(=O)c2ccc(-c3cccc(Cl)c3)cc2)CC1	Tau-tubulin kinase 2 (TTBK2, Homo sapiens, UniProt Q6IQ55)	enzyme activity, inhibitor	–	10 µM	–	activity vs control	103%
O=C1c2sc(-c3ccc(N4CCC(F)C4)nc3F)nc2CCN1c1cccnc1 (stereo not drawn)	TARDBP aggregated	saturation autoradiography	human, FTLD-TDP type A brain sections	23.95 nM	–	specific binding	100 nM
O=C1C[C@H](c2nc(-c3ccc(F)c4cn[nH]c34)no2)CCCN1c1ccc(F)cc1 (racemic)	Cannabinoid receptor 2 (CNR2, Homo sapiens, UniProt P34972, F94A)	GloSensor cAMP	–	concentration not given, CB2 mutant	baseline: mutant over wild type	fold change	31
C=CC(=O)N1CCCC(n2c(=O)c3ncccc3n(Cc3ccc(Oc4ccccc4)cc3)c2=O)C1 (stereo not drawn)	Host cell factor 1 (Homo sapiens, UniProt P51610)	thermal proteome profiling, item: HCFC1	–	treated	–	melting temperature	54.8 °C and 49.4 °C
CC1=CC(C)=[N+]2C1=C(CCCCN1CCC(O)(c3ccc(Cl)cc3)CC1)c1c(C)cc(C)n1[B-]2(F)F	Sodium- and chloride-dependent glycine transporter 2	MS binding competition	–	10 µM	–	remaining specific binding	95.5 ± 3.8%
CCCCCc1ccc(Cc2cc(/C=C/C(=O)OC)cc3cccnc23)cc1	GAP50	differential scanning fluorimetry	–	–	–	ΔTm	0 °C
O=C(O)Cc1cc2c(cc1C(=O)c1ccccc1)OCO2	Gria1/Gria2	glutamate-evoked current, whole-cell patch clamp	HEK-293T	concentration not given, pH 7.4, holding potential -60 mV, together with: 10 mM glutamate	–	current amplitude	298 ± 27 pA
CC1=NN(c2cccc(F)c2)C(=O)/C1=N\Nc1ccc(S(N)(=O)=O)cc1	Alpha-amylase (Bos taurus, UniProt Q3MHH8)	enzyme activity, inhibitor, glucose oxidase	–	100 µg/mL, together with: dextrin	–	inhibition	18.4%
CCCCCCCCOP(=O)(Cc1ccccc1)O[C@@H]1O[C@H](CO)[C@@H](O)[C@H](O)[C@H]1F (stereo partly drawn)	Lysosomal acid glucosylceramidase (GBA1, Homo sapiens, UniProt P04062, L483P)	chaperone	MEF expressing GBA L444P	100 µM, three days, then 48 h washout	baseline: untreated	relative activity	0.53

Compound	target	test	test system	conditions	how to read	endpoint	value
O=C1c2sc(-c3ccc(N4CCC(CO)CC4)nc3F)nc2CCN1c1cccnc1	TARDBP aggregated	binding, surface plasmon resonance	brain-derived TDP-43 aggregates	37.5 nM	–	SPR response	2.66 RU
O=C(N[C@@H](Cc1ccc(OCCCCC2CCNCC2)cc1)C(=O)O)c1nc2ccccc2o1.O=C(O)C(F)(F)F	Integrin alpha-IIb/beta-3 (Homo sapiens, UniProt P05106+P08514)	inhibitor, flow cytometry	washed platelets, human	240 nM, 30 min, room temperature, together with: ADP 20 µM, Alexa647-fibrinogen	higher = more binding	fibrinogen binding MFI	100000 a.u.
COC(=O)Cc1cc2c(cc1C(=O)c1ccccc1Br)OCO2	Gria1/Gria2	glutamate-evoked current, whole-cell patch clamp	HEK-293T	concentration not given, weighted tau, 1 ms pulse, together with: glutamate	–	deactivation time constant	2.7 ± 0.2 ms
C[N+]1=C2SCCN2C[C@@H]1c1ccccc1	acetylcholine-gated chloride channel (Haemonchus contortus, UniProt A0A219KWM7)	ion current, agonist, two-electrode voltage clamp	Haemonchus contortus, Xenopus oocytes	together with: acetylcholine 500 µM	baseline: acetylcholine response	Emax	12%
CC(=O)c1cnc(NS(=O)(=O)c2ccc(Cl)c(Cl)c2)nc1	17-beta-hydroxysteroid dehydrogenase 13 (Homo sapiens, UniProt Q7Z5P4)	enzyme activity	human hepatocytes, HSD17B13 siRNA, culture medium	96 h	baseline: scramble siRNA control	oxidized product ratio	0.0558 and 0.047 and 0.048 and 0.0561
COC(=O)[C@@]1(C)C=C(C(=O)Nc2cccc(C(=O)Nc3ccc(Nc4nccc(-c5cccnc5)n4)c(C)c3)c2)C(=O)CC1	Mitogen-activated protein kinase 8 (MAPK8, Homo sapiens, UniProt P45983, C116S)	noncovalent binding, SPR	–	100, 300, 1000 nM, two-step kinetic model	–	kon	190000 M⁻¹ s⁻¹
O=C(O)Cc1cc2c(cc1C(=O)c1cccc(I)c1)OCO2	Gria1/Gria2	glutamate-evoked current, whole-cell patch clamp	HEK-293T	concentration not given	baseline: glutamate alone	current amplitude ratio	3.42 ± 0.2
N=C(N)NCCS(=O)(=O)O	Sodium- and chloride-dependent taurine transporter (SLC6A6, Homo sapiens, UniProt P31641, Y138A)	binding, microscale thermophoresis	–	122 nM, room temperature, together with: 50 nM labelled protein	higher = more binding	normalised MST signal	0.0464
CC[C@H]1CN([C@@H](CC)c2ccc(C(F)(F)F)cc2)[C@H](CC)CN1c1nc(=O)n(C)c2ccc(C#N)nc12	Diacylglycerol kinase epsilon (DGKE, Homo sapiens, UniProt P52429)	inhibitor	–	concentration not given, type III DGK	–	kinase activity	inactive
CC[C@H](C)[C@@H]1NC(=O)[C@H](C)NC(=O)[C@H](C(C)C)NC(=O)[C@H](CC(C)C)NC(=O)C[C@@H](C(=O)N[C@@H](Cc2c[nH]c3ccccc23)C(=O)N[C@@H](CC(N)=O)C(=O)N[C@@H](C)C(=O)N2CCC[C@H]2C(=O)NCC(=O)N[C@@H](Cc2c[nH]c3ccccc23)C(=O)N[C@@H](Cc2ccccc2)C(=O)O)NC(=O)[C@H](C)NC(=O)[C@H](CCC(N)=O)NC(=O)[C@H](C(C)C)NC1=O	Toll-like receptor 4 (TLR4, Homo sapiens, UniProt O00206)	antagonist, ELISA	–	1 µg/mL, together with: LPS	baseline: DMSO control, lower means stronger antagonism	OD450 in LPS binding ELISA	0.828 a.u. and 0.816 a.u. and 0.82 a.u. and 0.824 a.u.
CC(C)[C@@H]1NC(=O)[C@H](Cc2ccccc2)NC(=O)CSC[C@@H](C(N)=O)NC(=O)[C@H](CCC(=O)O)NC(=O)[C@H](CO)NC(=O)[C@H](Cc2c[nH]c3cccc(Cl)c23)NC(=O)[C@H](C2CCCCC2)NC(=O)[C@H](C(C)C)NC(=O)[C@H](Cc2ccc(O)cc2)NC(=O)[C@H](CC(=O)O)NC(=O)[C@H](Cc2c[nH]c3ccccc23)NC(=O)[C@H](Cc2ccc(N)nc2)NC(=O)[C@H](Cc2c[nH]c3ccc(Cl)cc23)NC(=O)[C@H](CCC(=O)O)NC1=O	Interleukin-1 receptor-like 2 (IL1RL2, Homo sapiens, UniProt Q9HB29)	IL-8 release, antagonist	A-431	400 µM, 18 h, together with: IL-36γ	baseline: untreated	remaining activity	78%
CC(=O)C12NC(C)(C)CC1(C)C(=O)C1=C2c2c(c3c4n2C(C)(C)CC2=C4C4(CC(C)(C)NC(C)(C4)C2=O)CC3(C)C)C(=O)C(C)(C)N1 (single isomer, unassigned; (+))	TRPM3 (Homo sapiens, UniProt Q9HCF6)	–	HEK293T	10 µM	–	agonist activity	2.65 ± 0.01%
CC[C@H](C)[C@H](NC(=O)[C@@H](N)CCC(N)=O)C(=O)N[C@@H](CCCNC(=N)N)C(=O)N[C@@H](CO)C(=O)N[C@@H](Cc1c[nH]cn1)C(=O)N[C@@H](COP(=O)(O)O)C(=O)N[C@@H](Cc1ccc(O)cc1)C(=O)N[C@@H](CC(C)C)C(=O)N[C@@H](CCCNC(=N)N)C(=O)N[C@@H](C)C(=O)N[C@H](C(=O)N[C@@H](CO)C(=O)N[C@@H](CCC(=O)O)C(=O)N[C@H](C(=O)N[C@@H](CO)C(=O)O)C(C)C)C(C)C	Membrane-associated guanylate kinase, WW and PDZ domain-containing protein 2 (Magi2, Mus musculus, UniProt Q9WVQ1)	binding, ITC	–	pH 8.0, 25 °C	–	ΔH	-12.7 ± 0.14 kcal/mol
COc1ccc2c(c1)C1CC(C)(N2)c2c(C)nc3ccc(OC)cc3c21 (stereo not drawn)	GAP50	binding, surface plasmon resonance	–	1:1 binding model	–	koff	0.00757 s⁻¹
COc1cc2nc(-c3ccccc3)nc(Nc3ccc(Oc4ccccc4)cc3)c2cc1OC	SMUG1 (Homo sapiens, UniProt Q53HV7)	enzyme activity, activator, fluorescence	–	2 µM	baseline: control	activity	1300%
C#CCOC(=O)[C@@]1(C)C=C(C(=O)OC(C)(C)C)C(=O)CC1	Mitogen-activated protein kinase 8 (MAPK8, Homo sapiens, UniProt P45983)	D-peptide binding, inhibitor, FP peptide displacement	–	0.7812 µM	lower is stronger displacement	fraction bound	0.975
CCCCCC(O)/C=C/C=O (stereo not drawn)	Cytidine deaminase (CDA, Homo sapiens, UniProt P32320)	competitive isoTOP-ABPP	proteome, soluble, MDA-MB-231	100 µM, together with: iodoacetamide probe	baseline: DMSO over compound-treated, higher = stronger cysteine blockade	isoTOP-ABPP competition ratio	2.5
CC(C)(C)c1ccc(COc2cccc(C(=O)O)c2)cc1	Nuclear receptor subfamily 4 group A member 2 (Homo sapiens, UniProt P43354)	isothermal titration calorimetry	–	concentration not given, 25 °C	–	binding stoichiometry	1.06
COc1ccc(C(=O)NC2CCN(Cc3ccccc3)CC2)cc1	Sodium- and chloride-dependent glycine transporter 2	MS binding competition	–	10 µM	–	remaining specific binding	94.3 ± 5.3%

A few entries again:
Compound	target	test	test system	conditions	how to read	endpoint	value
CC(=O)C12NC(C)(C)CC1(C)C(=O)C1=C2c2c(c3c4n2C(C)(C)CC2=C4C4(CC(C)(C)NC(C)(C4)C2=O)CC3(C)C)C(=O)C(C)(C)N1 (single isomer, unassigned; (+))	TRPM3 (Homo sapiens, UniProt Q9HCF6)	–	HEK293T	10 µM	–	agonist activity	2.65 ± 0.01%
CC[C@H](C)[C@H](NC(=O)[C@@H](N)CCC(N)=O)C(=O)N[C@@H](CCCNC(=N)N)C(=O)N[C@@H](CO)C(=O)N[C@@H](Cc1c[nH]cn1)C(=O)N[C@@H](COP(=O)(O)O)C(=O)N[C@@H](Cc1ccc(O)cc1)C(=O)N[C@@H](CC(C)C)C(=O)N[C@@H](CCCNC(=N)N)C(=O)N[C@@H](C)C(=O)N[C@H](C(=O)N[C@@H](CO)C(=O)N[C@@H](CCC(=O)O)C(=O)N[C@H](C(=O)N[C@@H](CO)C(=O)O)C(C)C)C(C)C	Membrane-associated guanylate kinase, WW and PDZ domain-containing protein 2 (Magi2, Mus musculus, UniProt Q9WVQ1)	binding, ITC	–	pH 8.0, 25 °C	–	ΔH	-12.7 ± 0.14 kcal/mol
